Measurements gathered from unrelated publications.
Lines come from different studies, so protocols differ. ± gives the spread as reported.

For `O=C(O)c1nc2ccccc2c(=O)n1Cc1cn(-c2ccccc2Cl)nn1`, the IC50 was 211 µg/mL (Candida tropicalis; microbial growth, broth dilution; ATCC750; 24 h).
For `CC[C@H]1OC(=O)[C@H](C)[C@@H](O[C@H]2C[C@@](C)(OC)[C@@H](O)[C@H](C)O2)[C@H](C)[C@@H](O[C@@H]2O[C@H](C)C[C@H](N(C)C)[C@H]2O)[C@](C)(O)C[C@@H](C)C(=O)[C@H](C)[C@@H](O)[C@]1(C)O`, the sensitive strains was 66.7% (coagulase-negative Staphylococcus; community-acquired pneumonia patients; Fine score below 70).
The IC50 of `COc1ccccc1-n1cc(Cn2c(C(=O)O)nc3ccccc3c2=O)nn1` is reported as 9.1 µg/mL (Candida tropicalis; microbial growth, broth dilution; ATCC750; 24 h).
`NC(=O)c1ncn([C@@H]2O[C@H](CO)[C@@H](O)[C@H]2O)n1` has an inhibition of 54% (Tobacco mosaic virus; inactivation activity; host plant; 500 µg/mL).
`CNC1=C([N+](=O)[O-])C2(C(=O)Nc3ccccc32)C2=C(CC(C)(C)CC2=O)O1` (stereo not shown) has an inhibition of 57.7% (Salmonella enterica; microbial growth; TYPHIMURIUM; 250 µg/mL, 24 h).
With `COc1ccc(NCc2ccc(Oc3ccccn3)cc2)cc1` the MIC was 41 µM (Mycobacterium tuberculosis; H37Rv, GAST-Fe medium; 1 weeks, pH 6.6).
With `CC(C)(O/N=C(\C(=O)N[C@H]1CN2CC(C(=O)NCCN3C(=O)c4cc(O)c(O)cc4C3=O)=C(C(=O)O)N2C1=O)c1nc(N)sc1Cl)C(=O)O` the susceptible isolates was 86% (Acinetobacter; clinical isolates; low iron, breakpoint 4 µg/mL).
`O=C(O)c1ccc(-n2cc(Cn3c(C(=O)O)nc4ccccc4c3=O)nn2)cc1` gave an IC50 of 457 µg/mL (Candida tropicalis; microbial growth, broth dilution; ATCC750; 24 h).
The MIC of `Clc1cccc(NCc2ccc(Oc3ccccn3)cc2)c1` is reported as 40 µM (Mycobacterium tuberculosis; H37Rv, 7H9/ADC/Tween medium; 1 weeks).
The sensitive strains of `CC[C@H]1OC(=O)[C@H](C)[C@@H](O[C@H]2C[C@@](C)(OC)[C@@H](O)[C@H](C)O2)[C@H](C)[C@@H](O[C@@H]2O[C@H](C)C[C@H](N(C)C)[C@H]2O)[C@](C)(O)C[C@@H](C)CN(C)[C@H](C)[C@@H](O)[C@]1(C)O` is reported as 75% (coagulase-negative Staphylococcus; community-acquired pneumonia patients; Fine score 70 or more).
For `Cc1noc(/C=C/c2ccccn2)c1[N+](=O)[O-]`, the EC50 was about 2.5 µM (Schistosoma mansoni; parasite motility, imaging; 48 h, larva).
For `Clc1ccccc1NCc1ccc(Oc2ccccn2)cc1`, the MIC was over 100 µM (Mycobacterium tuberculosis; H37Rv, 7H9/ADC/Tween medium; 2 weeks).
With `Cc1cc(N)nc(CCc2cc(N)cc(CCc3cc(C)cc(N)n3)c2)c1` the inhibition was about 99% (Bacillus subtilis; bacterial survival, NOS inhibitor; 500 µM, 0.5 h, together with: acriflavine 800 µM).
With `O=S(=O)(Cc1ccccc1)c1nc2ccccc2s1` the EC50 was about 6 µM (Schistosoma mansoni; parasite motility; 48 h, adult).
`Fc1ccccc1NCc1ccc(Oc2ccccn2)cc1` gave an MIC of 43 µM (Mycobacterium tuberculosis; H37Rv, GAST-Fe medium; 1 weeks, pH 6.6).
`Cc1ccc(S(=O)(=O)N2C(=O)CSC2c2cccc([N+](=O)[O-])c2)cc1` (stereo not shown) gave an MIC of 32 µg/mL (Salmonella enterica; microbial growth, broth dilution; TYPHIMURIUM).
`CC1(C)S[C@@H]2[C@H](NC(=O)[C@H](N)c3ccc(O)cc3)C(=O)N2[C@H]1C(=O)O` has a sensitive strains of 100% (Enterococcus; community-acquired pneumonia patients; Fine score 70 or more).
`COc1cccc2c1C(=O)c1c(O)c3c(c(O)c1C2=O)C[C@@](O)(C(=O)CO)C[C@@H]3O[C@H]1C[C@H](N)[C@H](O)[C@H](C)O1` gave an IC50 of 9.8 ± 5.9 µM (Artemia; cytotoxicity; 24 h).
For `CCOC(=O)c1nc2ccccc2c(=O)n1Cc1cn(-c2ccc(F)cc2)nn1`, the IC50 was 435 µg/mL (Candida tropicalis; microbial growth, broth dilution; ATCC750; 24 h).
The inactivation activity of `NC(=O)c1ncn([C@@H]2O[C@H](CO)[C@@H](O)[C@H]2O)n1` is reported as 72.7 ± 4.7% (tobacco mosaic virus; half-leaf method; tobacco; 500 µg/mL).
Under “inhibition zone diameter”, `CC1(C)S[C@@H]2[C@H](NC(=O)[C@H](N)c3ccccc3)C(=O)N2[C@H]1C(=O)O` is recorded as 21 mm (Bacillus subtilis; IFO 3007; 100 µg/disc, 24 h).
`CNC1=C([N+](=O)[O-])C2(C(=O)Nc3ccc(Br)cc32)c2c(c3ccccc3oc2=O)O1` (stereo not shown) gave an inhibition of 37.6% (Salmonella enterica; microbial growth; TYPHIMURIUM; 250 µg/mL, 24 h).
With `O=C(O)c1nc2ccccc2c(=O)n1Cc1cn(-c2ccc(Cl)cc2)nn1` the IC50 was 303 µg/mL (Candida tropicalis; microbial growth, broth dilution; ATCC750; 24 h).
`CCOC(=O)c1c(N)csc1-c1cn(-c2ccccc2)nc1-c1ccc(C)cc1` gave an MIC of 0.124 ± 0.4 µg/mL (Bacillus subtilis; broth microdilution; clinical urinary isolate; compound gamma-irradiated 10 kGy).
The IC50 of `CCOC(=O)c1nc2ccccc2c(=O)n1Cc1cn(-c2ccccc2Cl)nn1` is reported as 65.6 µg/mL (Candida tropicalis; microbial growth, broth dilution; ATCC750; 24 h).
`Brc1cccc(NCc2ccc(Oc3ccccn3)cc2)c1` has an MIC of 70 µM (Mycobacterium tuberculosis; H37Rv, 7H9/ADC/Tween medium; 2 weeks).
The EC50 of `Cc1cc(N2C(=O)C(O)=C(C(=O)c3ccc(C)o3)C2c2cc(Cl)cc(Cl)c2)no1` (stereo not shown) is reported as 22 µM (West Nile virus; viral replication, plaque; BHK, Kunjin; 72 h).
The MIC of `COc1cccc(NCc2ccc(Oc3ccccn3)cc2)c1` is reported as 25 µM (Mycobacterium tuberculosis; H37Rv, GAST-Fe medium; 1 weeks, pH 6.6).
`CCCOc1ccc(-c2nc(N)[nH]c2C(F)(F)F)cc1` gave an EC50 of 120 ± 3 µM (Mycolicibacterium smegmatis; biofilm).
`CC(C)C[C@H](NC(=O)[C@H](Cc1ccccc1)NC(=O)c1cnccn1)B(O)O`: “decrease in proteasome β5 activity” 76% (Schistosoma mansoni; Suc-LLVY-AMC in extracts; 1 µM, 24 h, living worms).
`COc1ccc(C(=O)NN=Cc2ccc(O)c3ncccc23)cc1` has an EC50 of 100 µM (Enterobacter cloacae; bacterial growth; ATCC 13047; cation-supplemented medium).
`Cc1ccc(S(=O)(=O)N2C(=O)CSC2c2cccc(Cl)c2)cc1` (stereo not shown) gave an MIC of 16 µg/mL (Salmonella enterica; microbial growth, broth dilution; TYPHIMURIUM).
The therapeutic window of `CN(C)CCCn1c(=O)c2cc(Br)c3c(=O)n(CCCN(C)C)c(=O)c4c5[nH]c6ccccc6[nH]c5c(c1=O)c2c34` is reported as 15.6 to 125 nM (HIV-1; TZM-bl, BaL; activity with cytotoxicity below 80%).
With `Nc1nc2c(ncn2COCCO)c(=O)[nH]1` the IC50 was 67.7 ± 18.2 µM (human alphaherpesvirus 1; viral GFP expression, live cell imaging; primary keratinocytes, six donors, K26, GFP-expressing; peak infection time).
The inhibition of `CNC1=C([N+](=O)[O-])C2(C(=O)Nc3ccccc32)c2c(c3ccccc3oc2=O)O1` (stereo not shown) is reported as 31% (Salmonella enterica; microbial growth; TYPHIMURIUM; 250 µg/mL, 24 h).
The EC50 of `O=C(C1CCCCC1)N1CC(=O)N2CCc3ccccc3C2C1` (stereo not shown) is reported as at most 0.66 µM (Schistosoma mansoni; motility; adult worms, all incubation times).
`CCCCCCOc1ccccc1C(=O)/C=C/C=C/c1ccccc1`: “zone of inhibition” 7 mm (Candida tropicalis; MTCC 230; 1000 µg/mL, 18 h).
`COc1ccccc1OCCNCC(O)COc1cccc2[nH]c3ccccc3c12` (stereo not shown) has an inhibition of 82% (Lytechinus pictus; cADPR-induced Ca2+ release, inhibitor, Fluo-3 fluorimetry; egg homogenate; concentration not given, maximal extent, high concentration, together with: cADPR 0.3 µM).
`CCOC(=O)CSc1nnc(C23CC4CC(CC(C4)C2)C3)n1-c1ccccc1`: “inhibition zone diameter” 19 mm (Bacillus subtilis; IFO 3007; 200 µg/disc, 24 h, 37 °C).
`N=C(N)c1ccc(OCCCCCOc2ccc(C(=N)N)cc2)cc1` gave an IC50 of 0.78 ± 0.37 µM (Leishmania tarentolae; viability, resazurin; promastigotes, Schneider's medium; 48 h, 26 °C, together with: 10% FCS).
The IC50 of `O=C(O)c1nc2ccccc2c(=O)n1Cc1cn(-c2ccccc2)nn1` is reported as 184 µg/mL (Candida tropicalis; microbial growth, broth dilution; ATCC750; 24 h).
`CCc1cc(CC)n(C(N)=S)n1` gave an MBC of over 1000 µg/mL (Staphylococcus epidermidis; broth microdilution, agar subculture; ATCC 12228; 24 h).
With `Brc1ccc(NCc2ccc(Oc3ccccn3)cc2)cc1` the MIC was 35 µM (Mycobacterium tuberculosis; H37Rv, 7H9/ADC/Tween medium; 1 week).
`COc1ccc(-n2cc(Cn3c(C(=O)O)nc4ccccc4c3=O)nn2)cc1` gave an IC50 of 162 µg/mL (Candida tropicalis; microbial growth, broth dilution; ATCC750; 24 h).
With `CNC1=C([N+](=O)[O-])C2(C(=O)Nc3ccc([N+](=O)[O-])cc32)C2=C(CC(C)(C)CC2=O)O1` (stereo not shown) the inhibition was 61% (Salmonella enterica; microbial growth; TYPHIMURIUM; 250 µg/mL, 24 h).
Under hepatic vitellogenin, `Oc1cccc2ccccc12` is recorded as “increased” (Oryzias latipes; female; dose not given, 21 d).
`c1ccc(NCc2ccc(Oc3ccccn3)cc2)cc1` gave an MIC of 25 µM (Mycobacterium tuberculosis; H37Rv, GAST-Fe medium; 1 weeks, pH 6.6).
`CNC(C)C1CCC(N)C(OC2C(N)CC(N)C(OC3OCC(C)(O)C(NC)C3O)C2O)O1` (stereo not shown): “inhibition zone diameter” 25 mm (Bacillus subtilis; IFO 3007; 100 µg/disc, 24 h).
The MIC of `CC1(C)S[C@@H]2[C@H](NC(=O)[C@H](N)c3ccccc3)C(=O)N2[C@H]1C(=O)O` is reported as 0.62 ± 0.3 µg/mL (Lactobacillus delbrueckii subsp. lactis; broth microdilution; ATCC 7830, MRS medium; 24 h, 37 °C).
